{"data": "Experimental data gathered from unrelated publications", "note": "± marks the error that the study gave."}
{"SMILES": "CCCC[C@H](NC(=O)CN1CCC(NC(=O)CN2CCN(CC(=O)O)CCN(CC(=O)O)CCN(CC(=O)O)CC2)CC1)C(=O)N[C@H]1CC(=O)NCCCC[C@@H](C(N)=O)NC(=O)[C@H](Cc2c[nH]c3ccccc23)NC(=O)[C@H](CCCNC(=N)N)NC(=O)[C@@H](Cc2ccccc2)NC(=O)[C@H](Cc2c[nH]cn2)NC1=O [gallium-68 labelled]", "system": "C57BL/6J mice male B16-F10 tumour, testes", "conditions": "2 h post injection, unblocked", "endpoint": "tissue uptake", "value": "0.4 ± 0.1 %ID/g"}
{"SMILES": "NC12CNCCNCC(NCc3ccc(CNC(=O)CCCC(=O)NCc4ccc(-c5nncnn5)cc4)cc3)(CNCCNC1)CNCCNC2.[64Cu+2]", "system": "athymic nude mice SW1222 xenograft, muscle", "conditions": "12 h post injection, 24 h accumulation interval, with: huA33-TCO pretargeting", "endpoint": "tissue uptake", "value": "0.15 ± 0.01 %ID/g"}
{"SMILES": "N=C(N)NCCC[C@H](NC(=O)CON=C[C@H](F)[C@@H](O)[C@H](O)[C@H](O)CO)C(=O)NCC(=O)N[C@@H](CC(=O)O)C(=O)O [fluorine-18 labelled]", "system": "nude mice, U-87 MG xenograft", "conditions": "intravenous, 2 h", "scale": "relative to: tumour over liver", "endpoint": "tissue ratio", "value": "1.25 ± 0.08"}
{"SMILES": "CCCC[C@H](NC(=O)CNC(=O)CNC(=O)CN1CCN(CC(=O)O)CCN(CC(=O)O)CCN(CC(=O)O)CC1)C(=O)N[C@H]1CC(=O)NCCCC[C@@H](C(N)=O)NC(=O)[C@H](Cc2c[nH]c3ccccc23)NC(=O)[C@H](CCCNC(=N)N)NC(=O)[C@@H](Cc2ccccc2)NC(=O)[C@H](Cc2c[nH]cn2)NC1=O [gallium-67 labelled]", "system": "female C57 mice, B16/F1 melanoma, bone", "conditions": "intravenous, 0.037 MBq, 2 h", "endpoint": "tissue uptake", "value": "1.04 ± 0.24 %ID/g"}
{"SMILES": "CN1C(=O)[C@@H](Cc2ccc(O)c(I)c2)NC(=O)CNC(=O)[C@H](Cc2ccc3ccccc3c2)NC(=O)[C@H](CCCNC(=N)N)NC(=O)[C@H]1CCCNC(=O)c1ccc(CNC(=O)CN2CCN(CC(=O)O)CCN(CC(=O)O)CCN(CC(=O)O)CC2)cc1 [lutetium-177 labelled]", "assay": "measured: 177Lu radioactivity", "system": "female CB-17 SCID mice, Daudi xenograft, liver", "conditions": "intravenous, 0.16 nmol per mouse, 96 h", "endpoint": "tissue uptake", "value": "6.29 ± 0.36 %ID/g"}
{"SMILES": "CCCC[C@@H]1NC(=O)[C@@H](NC(=O)[C@H](CCC(=O)O)NC(=O)CNC(=O)CN2CCN(CC(=O)O)CCN(CC(=O)O)CCN(CC(=O)O)CC2)CCCCNC(=O)C[C@@H](C(N)=O)NC(=O)[C@H](C(C)C)NC(=O)[C@@H]2CCCN2C(=O)[C@H](CCCNC(=N)N)NC(=O)CNC(=O)[C@H](Cc2c[nH]c3ccccc23)NC(=O)[C@H](CCCNC(=N)N)NC(=O)[C@@H](Cc2ccccc2)NC(=O)[C@H](Cc2c[nH]cn2)NC(=O)[C@H](CCC(=O)O)NC1=O [gallium-67 labelled]", "system": "C57 mice with B16/F1 melanoma, liver", "conditions": "intravenous, 4 h", "endpoint": "tissue uptake", "value": "0.25 ± 0.07 %ID/g"}
{"SMILES": "CCCC[C@H](NC(=O)CNC(=O)CNC(=O)CN1CCN(CC(=O)O)CCN(CC(=O)O)CC1)C(=O)N[C@H]1CC(=O)NCCCC[C@@H](C(N)=O)NC(=O)[C@H](Cc2c[nH]c3ccccc23)NC(=O)[C@H](CCCNC(=N)N)NC(=O)[C@@H](Cc2ccccc2)NC(=O)[C@H](Cc2c[nH]cn2)NC1=O [gallium-67 labelled]", "system": "female C57 mice, B16/F1 melanoma, spleen", "conditions": "intravenous, 0.037 MBq, 24 h", "endpoint": "tissue uptake", "value": "0.85 ± 0.23 %ID/g"}
{"SMILES": "O=C([O-])c1cccc(CN(CCN(Cc2cn(Cc3ccccc3)nn2)Cc2cccc(C(=O)[O-])n2)Cc2cn(Cc3ccccc3)nn2)n1.[64Cu+2]", "assay": "PET imaging", "system": "healthy female athymic nude mice, liver", "conditions": "24 h", "endpoint": "tissue uptake", "value": "~8 %ID/g"}
{"note": "Excerpt of the above:"}
{"SMILES": "CN1C(=O)[C@@H](Cc2ccc(O)c(I)c2)NC(=O)CNC(=O)[C@H](Cc2ccc3ccccc3c2)NC(=O)[C@H](CCCNC(=N)N)NC(=O)[C@H]1CCCNC(=O)c1ccc(CNC(=O)CN2CCN(CC(=O)O)CCN(CC(=O)O)CCN(CC(=O)O)CC2)cc1 [lutetium-177 labelled]", "assay": "measured: 177Lu radioactivity", "system": "female CB-17 SCID mice, Daudi xenograft, liver", "conditions": "intravenous, 0.16 nmol per mouse, 96 h", "endpoint": "tissue uptake", "value": "6.29 ± 0.36 %ID/g"}
